Assay results gathered from unrelated publications.
Each numbered part is a random draw from the data of one study; scales do not carry over between parts.

Set 1 — technique: aptamer microarray, sandwich; molecule type: DNA with 2'F-ANA; medium: in vitro; concentration: 200 nM; together with: Cy3 exosite-II aptamer, 400 nM; reading: higher = stronger binding; oligonucleotide: GGTTGGTGTGGTTGG
Target: Prothrombin, mature alpha-thrombin (F2, Homo sapiens, UniProt P00734)
Setting: whole 15-mer aptamer, many near background
| Modification | mean fluorescence intensity [a.u.] |
| --- | --- |
| 2'F-ANA at 2 6 11 12 13 14 15 | 120 |
| 2'F-ANA at 1 3 4 5 6 7 8 10 11 12 13 14 15 | 60 |
| 2'F-ANA at 1 2 12 13 | 346 |
| 2'F-ANA at 3 5 7 8 12 13 15 | 206 |
| 2'F-ANA at 1 2 5 6 8 10 14 15 | 50.8 |

Set 2 — technique: protein-binding microarray; molecule type: double-stranded DNA, one strand shown; medium: in vitro; concentration: 2200 nM top; setting: 60-bp whole probe; together with: salmon DNA 0.4 mg/ml; relative to: random background probes; reading: higher = stronger binding; all sequences stand within: GCCTAGCAC … GTCTTGATTCGCTTGACGCTGCTG
Target: Interferon regulatory factor 7, full length, phosphomimetic (IRF7, Homo sapiens, UniProt Q92985, residues 1-503, S471D/S472D/S475D/S476D/S477D/S483D/S484D/S487D)
Construct (chain): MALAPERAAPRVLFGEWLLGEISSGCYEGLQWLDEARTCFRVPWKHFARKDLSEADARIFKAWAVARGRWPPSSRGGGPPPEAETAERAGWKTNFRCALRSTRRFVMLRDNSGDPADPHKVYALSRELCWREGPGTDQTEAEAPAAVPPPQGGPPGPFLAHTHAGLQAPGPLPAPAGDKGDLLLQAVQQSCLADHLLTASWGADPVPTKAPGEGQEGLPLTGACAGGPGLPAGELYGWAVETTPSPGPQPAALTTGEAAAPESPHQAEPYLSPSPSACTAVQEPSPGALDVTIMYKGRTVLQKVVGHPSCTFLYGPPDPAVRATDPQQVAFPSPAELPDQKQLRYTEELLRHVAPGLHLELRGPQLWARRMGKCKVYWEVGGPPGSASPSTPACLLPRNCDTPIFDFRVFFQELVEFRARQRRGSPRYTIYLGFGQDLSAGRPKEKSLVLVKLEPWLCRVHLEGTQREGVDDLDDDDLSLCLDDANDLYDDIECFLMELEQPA
| Oligonucleotide | fitted relative affinity |
| --- | --- |
| GAGGGTTTCCTTCTCCTGACGTGCTAG | 1.34 z-score |
| TTAGGTTTGGGTTTCGGTTAGTGCTAG | 4.58 z-score |
| GACGAACTGGGGACTGGAGATGTGCTA | -0.324 z-score |
| TTAGAACTCAGTTTCGATTAGTGCTAG | 5.38 z-score |
| TTATATCTCAGTTTCGATTAGTGCTAG | 6.2 z-score |
| GACGATATCAGTTTAGAGACGTGCTAG | 0.0886 z-score |

Set 3 — technique: protein binding microarray; molecule type: double-stranded DNA, one strand shown; medium: in vitro; concentration: not given; relative to: not given; reading: higher = stronger binding
Target: Histone acetyltransferase KAT6A, winged helix 2, GST fusion (KAT6A, Homo sapiens, UniProt Q92794, residues 85-181)
Setting: 8-mer, flanks averaged, mean of 2 arrays, mostly near background
Residues (chain): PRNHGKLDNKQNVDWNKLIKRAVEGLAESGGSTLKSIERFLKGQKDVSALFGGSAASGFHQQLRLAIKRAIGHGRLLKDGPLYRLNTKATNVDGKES
| Oligonucleotide | E-score |
| --- | --- |
| ACTTGTAT | -0.2 |
| GAACTATA | -0.0327 |
| CCATTTCA | -0.013 |
| GACTTAAA | -0.024 |

Single results of other studies
| Molecule | target | test | test system | conditions | how to read | measurement | result |
| --- | --- | --- | --- | --- | --- | --- | --- |
| PhoQ, residues 284 288 289 292 302 303 NLALSC | PhoP, residues 12 14 15 18 19 DLLYY (Escherichia coli, UniProt P23836) | Sort-seq, refers to: YFP reporter | E. coli | PhoQ-PhoP variant library, together with: 10 µM Mg2+ | relative to: high Mg2+ state, higher = stronger signaling | fold induction | 0.426 |
